Assay results pooled from the literature.
Every numbered part comes from another study and shows a few of its results, in no order.
Sequence of UniProt P10721 (whole entry, unmodified, looked up): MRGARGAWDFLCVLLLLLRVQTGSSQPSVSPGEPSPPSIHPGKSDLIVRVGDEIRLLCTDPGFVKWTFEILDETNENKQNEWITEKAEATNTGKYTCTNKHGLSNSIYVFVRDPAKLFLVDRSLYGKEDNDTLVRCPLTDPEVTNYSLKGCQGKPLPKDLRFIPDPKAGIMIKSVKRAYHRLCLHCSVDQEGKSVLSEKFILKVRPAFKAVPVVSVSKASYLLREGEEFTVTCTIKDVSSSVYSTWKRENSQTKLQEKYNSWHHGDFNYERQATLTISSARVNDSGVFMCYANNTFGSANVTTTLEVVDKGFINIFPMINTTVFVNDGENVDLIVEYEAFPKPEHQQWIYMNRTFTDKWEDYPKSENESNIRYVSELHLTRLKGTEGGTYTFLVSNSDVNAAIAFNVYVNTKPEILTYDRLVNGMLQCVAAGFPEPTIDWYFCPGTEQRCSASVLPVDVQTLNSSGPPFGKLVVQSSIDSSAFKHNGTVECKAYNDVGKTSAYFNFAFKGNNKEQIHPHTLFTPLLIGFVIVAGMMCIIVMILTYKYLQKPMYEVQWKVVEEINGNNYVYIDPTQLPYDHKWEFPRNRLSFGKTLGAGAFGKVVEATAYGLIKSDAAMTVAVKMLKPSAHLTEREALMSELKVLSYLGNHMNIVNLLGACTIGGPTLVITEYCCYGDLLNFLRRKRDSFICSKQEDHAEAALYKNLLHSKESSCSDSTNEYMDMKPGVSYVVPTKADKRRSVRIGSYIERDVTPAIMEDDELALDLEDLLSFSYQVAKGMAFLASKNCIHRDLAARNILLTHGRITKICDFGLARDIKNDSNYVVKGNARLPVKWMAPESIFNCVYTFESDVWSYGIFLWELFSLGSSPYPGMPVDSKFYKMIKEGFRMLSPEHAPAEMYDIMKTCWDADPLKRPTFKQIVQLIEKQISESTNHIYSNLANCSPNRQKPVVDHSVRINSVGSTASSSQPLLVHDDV
Sequence of UniProt P42684 (whole entry, looked up): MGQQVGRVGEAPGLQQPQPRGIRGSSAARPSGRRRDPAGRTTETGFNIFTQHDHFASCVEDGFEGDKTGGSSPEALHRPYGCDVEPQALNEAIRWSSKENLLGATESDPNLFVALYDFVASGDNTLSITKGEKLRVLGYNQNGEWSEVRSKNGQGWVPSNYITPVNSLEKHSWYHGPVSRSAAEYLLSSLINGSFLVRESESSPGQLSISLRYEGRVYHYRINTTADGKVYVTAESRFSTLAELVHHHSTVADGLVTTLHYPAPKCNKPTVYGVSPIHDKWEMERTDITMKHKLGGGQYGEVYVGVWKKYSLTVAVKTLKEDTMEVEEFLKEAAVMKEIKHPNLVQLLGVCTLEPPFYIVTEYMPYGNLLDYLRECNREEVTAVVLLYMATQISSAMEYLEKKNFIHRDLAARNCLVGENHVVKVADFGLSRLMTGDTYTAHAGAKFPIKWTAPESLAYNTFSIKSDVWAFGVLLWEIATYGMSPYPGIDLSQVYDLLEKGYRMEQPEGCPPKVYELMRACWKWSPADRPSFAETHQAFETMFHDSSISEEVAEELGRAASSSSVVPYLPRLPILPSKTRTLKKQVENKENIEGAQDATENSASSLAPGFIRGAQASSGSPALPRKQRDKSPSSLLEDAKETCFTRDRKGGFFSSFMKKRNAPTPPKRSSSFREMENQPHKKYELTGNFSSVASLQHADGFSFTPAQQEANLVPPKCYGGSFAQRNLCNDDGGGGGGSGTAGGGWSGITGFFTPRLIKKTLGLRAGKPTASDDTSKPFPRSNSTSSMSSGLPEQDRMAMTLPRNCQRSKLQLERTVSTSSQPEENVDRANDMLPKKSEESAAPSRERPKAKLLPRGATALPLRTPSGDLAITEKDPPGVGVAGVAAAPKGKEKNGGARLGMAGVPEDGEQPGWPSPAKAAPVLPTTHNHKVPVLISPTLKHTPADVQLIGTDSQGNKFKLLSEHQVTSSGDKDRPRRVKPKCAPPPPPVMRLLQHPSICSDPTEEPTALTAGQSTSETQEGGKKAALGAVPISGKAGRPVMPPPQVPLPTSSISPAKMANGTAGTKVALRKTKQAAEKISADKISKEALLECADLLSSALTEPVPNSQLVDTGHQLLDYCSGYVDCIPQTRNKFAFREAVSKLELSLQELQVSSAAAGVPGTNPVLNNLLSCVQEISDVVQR
Sequence of UniProt Q9HC98 (whole entry, looked up): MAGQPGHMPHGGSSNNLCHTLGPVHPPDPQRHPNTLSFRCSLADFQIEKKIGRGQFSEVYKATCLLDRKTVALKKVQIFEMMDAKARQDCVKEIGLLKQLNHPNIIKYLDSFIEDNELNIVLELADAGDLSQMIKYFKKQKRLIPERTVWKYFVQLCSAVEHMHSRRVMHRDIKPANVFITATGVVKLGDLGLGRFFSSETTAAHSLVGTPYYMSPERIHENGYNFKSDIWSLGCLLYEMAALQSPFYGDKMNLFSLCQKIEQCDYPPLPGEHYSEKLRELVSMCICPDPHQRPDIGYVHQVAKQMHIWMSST
Sequence of UniProt P23458 (whole entry, looked up): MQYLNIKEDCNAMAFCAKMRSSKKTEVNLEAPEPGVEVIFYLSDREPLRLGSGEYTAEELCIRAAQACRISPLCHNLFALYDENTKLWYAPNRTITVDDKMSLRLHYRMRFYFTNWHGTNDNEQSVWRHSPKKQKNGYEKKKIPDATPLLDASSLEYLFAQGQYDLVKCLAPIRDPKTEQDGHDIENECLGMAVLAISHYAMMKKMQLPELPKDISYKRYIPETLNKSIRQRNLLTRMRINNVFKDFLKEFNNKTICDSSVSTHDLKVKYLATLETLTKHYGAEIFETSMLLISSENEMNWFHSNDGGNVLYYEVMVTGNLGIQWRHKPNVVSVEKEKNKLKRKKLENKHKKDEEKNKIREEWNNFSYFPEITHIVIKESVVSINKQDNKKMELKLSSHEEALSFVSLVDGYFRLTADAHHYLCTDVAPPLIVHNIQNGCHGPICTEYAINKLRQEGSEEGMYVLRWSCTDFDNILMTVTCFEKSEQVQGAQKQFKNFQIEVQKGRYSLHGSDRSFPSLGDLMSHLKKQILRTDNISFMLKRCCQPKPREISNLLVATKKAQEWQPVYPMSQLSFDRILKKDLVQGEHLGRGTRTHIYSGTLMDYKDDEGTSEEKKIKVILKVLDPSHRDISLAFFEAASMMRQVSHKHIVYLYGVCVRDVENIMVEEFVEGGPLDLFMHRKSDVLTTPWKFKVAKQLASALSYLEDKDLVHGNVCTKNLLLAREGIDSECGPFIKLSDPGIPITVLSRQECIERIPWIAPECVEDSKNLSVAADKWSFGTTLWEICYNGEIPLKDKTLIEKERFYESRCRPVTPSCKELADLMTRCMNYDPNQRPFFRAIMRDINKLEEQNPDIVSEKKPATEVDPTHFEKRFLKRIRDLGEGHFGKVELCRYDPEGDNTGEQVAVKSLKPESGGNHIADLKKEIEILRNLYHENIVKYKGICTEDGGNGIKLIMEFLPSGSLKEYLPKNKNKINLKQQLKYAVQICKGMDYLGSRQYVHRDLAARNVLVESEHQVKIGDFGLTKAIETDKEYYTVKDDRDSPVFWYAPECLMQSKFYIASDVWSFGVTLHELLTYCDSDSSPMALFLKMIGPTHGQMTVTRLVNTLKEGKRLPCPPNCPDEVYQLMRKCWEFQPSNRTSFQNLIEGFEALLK
Sequence of UniProt Q12866 (whole entry, looked up): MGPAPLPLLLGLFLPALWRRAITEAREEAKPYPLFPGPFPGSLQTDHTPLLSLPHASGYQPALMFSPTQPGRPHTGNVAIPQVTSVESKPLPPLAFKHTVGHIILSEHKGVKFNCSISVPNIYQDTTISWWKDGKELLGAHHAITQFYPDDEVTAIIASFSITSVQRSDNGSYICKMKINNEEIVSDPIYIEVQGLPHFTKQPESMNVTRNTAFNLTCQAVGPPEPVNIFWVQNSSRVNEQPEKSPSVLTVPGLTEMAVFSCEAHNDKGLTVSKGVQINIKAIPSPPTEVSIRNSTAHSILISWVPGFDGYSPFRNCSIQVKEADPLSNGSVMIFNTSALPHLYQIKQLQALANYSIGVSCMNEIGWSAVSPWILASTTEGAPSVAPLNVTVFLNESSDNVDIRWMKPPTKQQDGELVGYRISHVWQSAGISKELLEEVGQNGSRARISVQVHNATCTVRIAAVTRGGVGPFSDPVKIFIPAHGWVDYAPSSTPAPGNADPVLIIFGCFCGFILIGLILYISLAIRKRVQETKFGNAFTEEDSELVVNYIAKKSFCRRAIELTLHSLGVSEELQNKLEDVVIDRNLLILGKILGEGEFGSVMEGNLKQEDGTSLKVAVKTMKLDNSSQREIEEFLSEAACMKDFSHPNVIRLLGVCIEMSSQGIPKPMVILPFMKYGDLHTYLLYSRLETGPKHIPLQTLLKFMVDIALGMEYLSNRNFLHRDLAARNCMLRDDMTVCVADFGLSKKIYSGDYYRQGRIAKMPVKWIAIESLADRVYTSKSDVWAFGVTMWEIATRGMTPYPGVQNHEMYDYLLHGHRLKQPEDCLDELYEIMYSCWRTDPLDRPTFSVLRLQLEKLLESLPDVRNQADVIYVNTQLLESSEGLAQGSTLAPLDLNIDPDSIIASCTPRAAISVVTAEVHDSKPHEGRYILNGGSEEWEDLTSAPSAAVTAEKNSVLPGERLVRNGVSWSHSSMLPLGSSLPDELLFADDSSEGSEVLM
Sequence of UniProt P49137 (whole entry, looked up): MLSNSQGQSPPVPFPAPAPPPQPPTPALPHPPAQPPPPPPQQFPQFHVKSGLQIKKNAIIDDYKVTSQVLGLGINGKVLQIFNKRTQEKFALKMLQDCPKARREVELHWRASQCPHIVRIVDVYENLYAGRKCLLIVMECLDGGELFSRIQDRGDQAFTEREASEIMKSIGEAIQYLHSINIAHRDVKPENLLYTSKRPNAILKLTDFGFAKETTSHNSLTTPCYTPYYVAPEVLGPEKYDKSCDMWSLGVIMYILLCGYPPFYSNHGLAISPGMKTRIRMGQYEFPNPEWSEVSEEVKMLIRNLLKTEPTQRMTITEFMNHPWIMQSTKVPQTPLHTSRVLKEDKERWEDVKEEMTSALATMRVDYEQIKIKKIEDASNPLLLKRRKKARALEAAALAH

Block 1 — medium: hydrocarbon/water; pH: 7.4
SMILES | logD
CCCN1CC(=O)N[C@@H](CC2CCCCC2)C(=O)N(C)[C@@H](C)C(=O)N[C@@H](CC(C)C)C(=O)N(C)Cc2cn(nn2)CC(=O)N[C@@H](CC(C)C)C(=O)N(C)[C@@H](C)C(=O)N[C@@H](CC2CCCCC2)C(=O)N2CCC[C@@H]2C1=O | 2.18
CC[C@H]1NC(=O)[C@H](CC(C)C)NC(=O)[C@H](Cc2ccccc2)NC(=O)[C@H]2CCCN2C(=O)[C@H](CC2CCCCC2)NC(=O)[C@H](CC2CCCCC2)NC1=O | 2.79
CC[C@@H]1C(=O)N(C)[C@@H](CC(C)C)C(=O)N[C@@H](CC(C)C)C(=O)N2CCC[C@@H]2C(=O)N(C)[C@@H](Cc2ccccc2)C(=O)N[C@@H](CC(C)C)C(=O)N1C | ≥ 3.45
CC(C)CC1NC(=O)CN(CC2CCCCC2)C(=O)C2CCCN2C(=O)C(CC(C)C)NC(=O)C(C)N(C)C(=O)C(CC(C)C)NC(=O)CN(Cc2ccc3c(c2)OCO3)C(=O)C2CCCN2C(=O)C(C)NC(=O)C(C)N(C)C1=O (stereo not shown) | ≥ 3.4
CCC[C@@H]1NC(=O)CN(CC)C(=O)[C@H](CC(C)C)NC(=O)Cn2cc(nn2)CN(C)C(=O)[C@H](CC(C)C)NC(=O)[C@H](C)N(C)C(=O)[C@H](CC2CCCCC2)NC(=O)[C@H](C)N(C)C(=O)[C@H]2CCCN2C1=O | -0.418
CC[C@@H]1NC(=O)[C@H](CC)N(C)C(=O)[C@H]2CCCN2C(=O)[C@H](CC(C)C)NC(=O)[C@H](C)N(C)C(=O)[C@H](CC(C)C)NC(=O)Cn2cc(nn2)CN(C)C(=O)[C@H](CC(C)C)NC(=O)[C@H](C)N(C)C1=O | -1.04
CCCCCN1CC(=O)N[C@@H](C)C(=O)N2CCC[C@@H]2C(=O)N(C)[C@@H](CC(C)C)C(=O)N[C@@H](C)C(=O)N(Cc2ccc3c(c2)OCO3)CC(=O)N[C@@H](CC(C)C)C(=O)N2CCC[C@@H]2C(=O)N(C)[C@@H](CC(C)C)C(=O)N[C@@H](C)C1=O | 1.91
CCC[C@H]1C(=O)N[C@@H](CC(C)C)C(=O)N(C)[C@@H](C)C(=O)N[C@@H](CC(C)C)C(=O)N(C)Cc2cn(nn2)CC(=O)N[C@@H](CC(C)C)C(=O)N(C)[C@@H](C)C(=O)N[C@@H](CC(C)C)C(=O)N2CCC[C@@H]2C(=O)N1C | 0.819
CCC[C@@H]1NC(=O)[C@H](C)N(C)C(=O)[C@H](CC(C)C)NC(=O)Cn2cc(nn2)CN(C)C(=O)[C@H](CC(C)C)NC(=O)[C@H](C)N(C)C(=O)[C@H](CC(C)C)NC(=O)[C@H](CC)N(C)C(=O)[C@H]2CCCN2C1=O | -0.327
CCN1CC(=O)N[C@@H](CC(C)C)C(=O)N2CCC[C@@H]2C(=O)N(C)[C@@H](CC(C)C)C(=O)N[C@@H](C)C(=O)N(CC2CCCCC2)CC(=O)N[C@@H](C)C(=O)N2CCC[C@@H]2C(=O)N(C)[C@@H](CC(C)C)C(=O)N[C@@H](C)C1=O | 1.42
CCC[C@@H]1NC(=O)CN(CCC)C(=O)[C@H](CC(C)C)NC(=O)Cn2cc(nn2)CN(C)C(=O)[C@H](CC(C)C)NC(=O)[C@H](C)N(C)C(=O)[C@H](CC2CCCCC2)NC(=O)[C@H](C)N(C)C(=O)[C@H]2CCCN2C1=O | 0.208
CC(C)C[C@@H]1NC(=O)CN(Cc2ccc3c(c2)OCO3)C(=O)[C@H](C)NC(=O)[C@H](CC(C)C)N(C)C(=O)[C@H]2CCCN2C(=O)[C@H](C)NC(=O)CN(CC2CCCCC2)C(=O)[C@H](C)NC(=O)[C@H](CC(C)C)N(C)C(=O)[C@H]2CCCN2C1=O | 2.24

Block 2 — method: competition with immobilised ligand; tested at: 1 µM
SMILES: O=C(N[C@H]1CCCCC/C=C\C2C[C@@]2(C(=O)O)NC(=O)[C@@H]2C[C@@H](Oc3ccncc3)CN2C1=O)OC1CCCC1 (stereo partly shown)
target | assay | remaining binding
Aurora kinase A (AURKA, Homo sapiens, UniProt O14965) | cell-free assay | 92%
TAOK3 (Homo sapiens, UniProt Q9H2K8) | binding | 100%
Tyrosine-protein kinase JAK1, JH2 (JAK1, Homo sapiens, UniProt P23458) | binding | 89%
Macrophage colony-stimulating factor 1 receptor, autoinhibited (CSF1R, Homo sapiens, UniProt P07333) | cell-free assay | 92%
NLK (Homo sapiens, UniProt Q9UBE8) | binding | 100%
PKMYT1 (Homo sapiens, UniProt Q99640) | binding | 97%
Ribosomal protein S6 kinase alpha-4, C-terminal kinase domain (RPS6KA4, Homo sapiens, UniProt O75676) | binding | 85%
EPHB2 (Homo sapiens, UniProt P29323) | cell-free assay | 91%
CAMK2D (Homo sapiens, UniProt Q13557) | cell-free assay | 87%
FLT3 (Homo sapiens, UniProt P36888, K663Q) | binding | 85%
RIOK1 (Homo sapiens, UniProt Q9BRS2) | binding | 63%
MINK1 (Homo sapiens, UniProt Q8N4C8) | binding | 100%
KIT (Homo sapiens, UniProt P10721) | binding | 91%
RPS6KB1 (Homo sapiens, UniProt P23443) | binding | 89%
LIM domain kinase 1 (LIMK1, Homo sapiens, UniProt P53667) | binding | 92%
FLT3 (Homo sapiens, UniProt P36888, D835H) | binding | 56%
Myosin-IIIa (MYO3A, Homo sapiens, UniProt Q8NEV4) | binding | 94%
KIT (Homo sapiens, UniProt P10721, D816H) | binding | 100%
PIK3CA (Homo sapiens, UniProt P42336, H1047L) | binding | 100%
KDR (Homo sapiens, UniProt P35968) | cell-free assay | 100%
SGK2 (Homo sapiens, UniProt Q9HBY8) | binding | 100%

Block 3 — species: human; medium: microsomes or S9; tested at: 2 µM; time: 0.5 h
Compound | remaining compound [%]
CN(CC(=O)Nc1nc2c(F)cc(F)cc2s1)S(C)(=O)=O | 46.7
O=c1c2cnn(-c3ccc(F)cc3)c2ncn1Cc1cccnc1 | > 100
OC1=C2C(=Nc3ncnn3C2c2cn(-c3ccccc3)nc2-c2cccnc2)CCC1 (stereo not shown) | 70.6
CN(C)CCn1c(=N)n(CC(O)c2ccc(Cl)c(Cl)c2)c2ccccc21 (stereo not shown) | 68.5
COc1cc(NC(=O)c2c(OC)cc(=O)n3c2CCCC3)cc(OC)c1OC | 87.8
COc1cc2c(cc1OC)CN(C(=O)COc1cn(C)c(C)cc1=O)[C@H](C(N)=O)C2 | 95.5
CCCC(NC(=O)c1c2c(nc3ccccc13)C(=O)N(C1CCCCC1)C2)c1cccs1 (stereo not shown) | 85.3
Cc1ccc(N(C(C)C(=O)N(C)C)S(C)(=O)=O)cc1 (stereo not shown) | 53.8
Cc1noc(C)c1CCC(=O)Nc1cccc2ncccc12 | 69.7
NS(=O)(=O)c1ccc(CCNS(=O)(=O)Cc2ccccc2Cl)cc1 | 88.6
Cc1cc(C)c(N(C)S(=O)(=O)c2ccc3c(c2)C(=O)Nc2ccc(C)cc2O3)c(C)c1 | > 100
COc1ccc2ccccc2c1CNCc1ccc(F)cc1 | 13.6
COc1cc2c(cc1OC)/C(=N\c1ccccc1)N(Cc1ccc(F)c(F)c1)CC2 | 0.391
CCC(Oc1ccccc1C)C(=O)Nc1ccccc1C(=O)NC (stereo not shown) | 9.55
COc1ccc(S(=O)(=O)[C@H]2CS(=O)(=O)C[C@@H]2NCc2ccc3c(c2)OCO3)cc1C | 0.889

Block 4 — Compound: Cc1nc2cc3nc(-c4cccs4)cnc3cc2n1C; observed: enzyme activity; mode: inhibitor; tested at: 0.5 µM; relative to: control
target | remaining activity
ABL2 (Homo sapiens, UniProt P42684) | 100%
MERTK (Homo sapiens, UniProt Q12866) | 90.4%
CSNK1G3 (Homo sapiens, UniProt Q9Y6M4) | 96.1%
CSNK1G2 (Homo sapiens, UniProt P78368) | 103%
ACVR1B (Homo sapiens, UniProt P36896) | 104%
MAP2K2 (Homo sapiens, UniProt P36507) | 77.5%
MAP3K14 (Homo sapiens, UniProt Q99558) | 97.4%
MAP3K5 (Homo sapiens, UniProt Q99683) | 98.9%
MST1R (Homo sapiens, UniProt Q04912) | 107%
MAPKAPK2 (Homo sapiens, UniProt P49137) | 95.4%
GSK3B (Homo sapiens, UniProt P49841) | 109%
FRK (Homo sapiens, UniProt P42685) | 98.9%
JAK3 (Homo sapiens, UniProt P52333) | 107%
FGFR1 (Homo sapiens, UniProt P11362) | 88.8%
MAPK3 (Homo sapiens, UniProt P27361) | 117%
TEK (Homo sapiens, UniProt Q02763) | 96.6%
RPS6KA2 (Homo sapiens, UniProt Q15349) | 95%
EPHA3 (Homo sapiens, UniProt P29320) | 102%
GRK7 (Homo sapiens, UniProt Q8WTQ7) | 96.6%
TAOK2 (Homo sapiens, UniProt Q9UL54) | 99.7%
FGFR3 (Homo sapiens, UniProt P22607) | 67.1%
NEK6 (Homo sapiens, UniProt Q9HC98) | 99.2%
TBK1 (Homo sapiens, UniProt Q9UHD2) | 93%
LCK (Homo sapiens, UniProt P06239) | 86.3%
ULK2 (Homo sapiens, UniProt Q8IYT8) | 105%

Repeated from above (block 2):
target | assay | remaining binding
PKMYT1 (Homo sapiens, UniProt Q99640) | binding | 97%
Ribosomal protein S6 kinase alpha-4, C-terminal kinase domain (RPS6KA4, Homo sapiens, UniProt O75676) | binding | 85%
EPHB2 (Homo sapiens, UniProt P29323) | cell-free assay | 91%
CAMK2D (Homo sapiens, UniProt Q13557) | cell-free assay | 87%
FLT3 (Homo sapiens, UniProt P36888, K663Q) | binding | 85%
RIOK1 (Homo sapiens, UniProt Q9BRS2) | binding | 63%
